{"data": "Published values of several laboratories", "note": "Parts stem from different laboratories: compare values within a part only. Substitutions count along the parent as printed."}
{"data": "Study 1", "target": "RING finger protein unkempt homolog, zinc fingers 1-6, SBP tag (UNK, Homo sapiens, UniProt Q9C0B0, residues 30-357)", "technique": "RNA Bind-n-Seq", "form": "RNA", "sample": "in vitro", "concentration": "100 nM", "setting": "RNA with constant flanks, vertebrate orthologous sites, ends assumed", "relative to": "input RNA pool", "reading": "higher = stronger binding", "UniProt Q9C0B0, sequence (30-357, looked up)": "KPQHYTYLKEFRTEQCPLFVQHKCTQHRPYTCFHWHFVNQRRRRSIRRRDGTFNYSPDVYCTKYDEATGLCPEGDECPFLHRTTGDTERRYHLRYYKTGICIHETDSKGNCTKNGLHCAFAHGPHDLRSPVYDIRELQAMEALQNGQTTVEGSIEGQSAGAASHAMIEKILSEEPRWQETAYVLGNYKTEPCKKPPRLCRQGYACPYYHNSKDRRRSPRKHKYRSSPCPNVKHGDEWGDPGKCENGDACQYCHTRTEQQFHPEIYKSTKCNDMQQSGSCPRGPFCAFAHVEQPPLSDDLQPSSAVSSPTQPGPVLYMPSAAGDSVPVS"}
{"Sequence": "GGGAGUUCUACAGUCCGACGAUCUGUUGUUAAGCACUGUGUUCCAGACCGUGUCUGACUUUAGUGUAACCUAGGAGAUUUUUAUAGUUUUAUUUUAAUGAAAUCCCGCUUGACGCAGAGCAGCGGGGAGAGCAGUGUCCUCUACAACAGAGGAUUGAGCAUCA", "bound/input enrichment [ratio]": 2.65}
{"Sequence": "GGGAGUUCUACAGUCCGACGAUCGGGCUGUGUAGAGUAGGGCUGUGUUCUUCUUAGGAUGUUGCUUCUUGAUUUUCUUUUUUUAAGGGGUGGGUCAGGGUUGUGACACACCAGCCCAGGCAAGAGCUGCUGCGGGUCACCUCACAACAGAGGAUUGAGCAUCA", "bound/input enrichment [ratio]": 1.34}
{"Sequence": "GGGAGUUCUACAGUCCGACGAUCAGAAAAUUUUAAUCAGGAAUCAGAAGGUAGAAGCACAGGACCGUGGUUAUCUUCCUCACUUAGAAAUAGAUGCACACCUUUGUUCUCUAGAAGGAGGCGAGAGGGAAGAGAUGAAUCUUCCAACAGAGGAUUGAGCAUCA", "bound/input enrichment [ratio]": 1.11}
{"Sequence": "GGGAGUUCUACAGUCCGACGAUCCCCUCUGAACCCCAUAUCUUCUGUUUCAUAAUGCAGAAGUAUUCUUUUCAAUUAUAUCAUUAGUGGACUUGUUUUAAUUUUAGAGAAACUUUGAGUACAGAUACUGUGAGCUUACAUGGACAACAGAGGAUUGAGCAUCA", "bound/input enrichment [ratio]": 2.39}
{"Sequence": "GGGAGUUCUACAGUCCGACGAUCGUUAGGUCAUGACCCUUACAGAUUAGGUCAUGACCCUUAUAGGUUAGGACAGGACCCCUAUAGGUUAGGCCAUGAUCCCUAUAGGCUAGCUCCUGACCCCUAUAGAAUGUCACCCAGACCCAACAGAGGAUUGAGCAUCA", "bound/input enrichment [ratio]": 0.497}
{"Sequence": "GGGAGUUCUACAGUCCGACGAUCCCUACAAUAAUGAAAACCUACAGGAAUUUUUUUUUUCCCCAUUAUCCCCUUAGGCAUAUUUAGGCUUUUCCCCAGGCAGAUUAUUCUGAGUGUGCGAGUAUGUGUGCACAUGUUACAGAGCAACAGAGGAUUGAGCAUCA", "bound/input enrichment [ratio]": 0.876}
{"Sequence": "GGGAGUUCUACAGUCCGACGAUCUUCAGGCACAACUGACUGGUUCACAGCAUCCCUUACAUAGUUACCUAUCGAGUGCAAGUAUUGGCAGUUUUCAGGAAACAUCUAGGCAGUCGUCUUUAUCCUGUAGUUCAGUCCGAGAUUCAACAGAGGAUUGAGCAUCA", "bound/input enrichment [ratio]": 0.694}
{"Sequence": "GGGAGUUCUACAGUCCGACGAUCCAGAGCAGUUACCUAGUUCGGAGCAGUCCUUACAGGGAUAUUUCGGUUCAGGCAGCGAAGCAGAUGUAUCCUACCAGCAGGAACCAUCCCAUCAGCCCUCCGUGUCCUGCAACCCCUCCACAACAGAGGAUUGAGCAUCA", "bound/input enrichment [ratio]": 0.484}
{"data": "Study 2", "target": "CCNB1, cyclin fold, Cln2 fusion (human)", "technique": "yeast growth competition, sequencing", "sample": "yeast", "setting": "weak parent motif", "relative to": "not given", "reading": "higher = stronger binding", "starting sequence": "CDC25A docking peptide (human); PPHRRRLLFACSP"}
{"Change": "F9L", "normalised enrichment score": 0.573}
{"Change": "L8K", "normalised enrichment score": 0.831}
{"Change": "L8R", "normalised enrichment score": 0.173}
{"Change": "P13Y", "normalised enrichment score": 0.716}
{"Change": "C11Y", "normalised enrichment score": 0.459}
{"Change": "A10H", "normalised enrichment score": 0.815}
{"Change": "P1Y", "normalised enrichment score": 0.664}
{"Change": "P1I", "normalised enrichment score": 0.849}
{"Change": "H3M", "normalised enrichment score": 0.62}
{"Change": "H3G", "normalised enrichment score": 0.661}
{"Change": "R6L", "normalised enrichment score": 0.326}
{"Change": "L8N", "normalised enrichment score": 0.521}
{"data": "Study 3", "target": "Histone acetyltransferase KAT6A, both winged helices, GST fusion (KAT6A, Homo sapiens, UniProt Q92794, residues 1-181)", "technique": "protein binding microarray", "form": "double-stranded DNA, one strand shown", "sample": "in vitro", "concentration": "not given", "setting": "8-mer, flanks averaged, mean of 2 arrays, mostly near background", "relative to": "not given", "reading": "higher = stronger binding", "Residues (chain)": "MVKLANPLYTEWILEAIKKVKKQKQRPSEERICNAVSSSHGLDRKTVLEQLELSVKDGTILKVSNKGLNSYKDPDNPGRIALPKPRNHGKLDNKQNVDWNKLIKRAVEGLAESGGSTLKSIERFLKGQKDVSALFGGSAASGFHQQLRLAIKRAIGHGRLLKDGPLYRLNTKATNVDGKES"}
{"Sequence": "AGTAAAGA", "E-score": -0.0417}
{"Sequence": "ACTCTCCG", "E-score": 0.017}
{"Sequence": "ACAGTGCT", "E-score": 0.0235}
{"Sequence": "ATCAGTAA", "E-score": -0.0764}
{"Sequence": "ACGGCAGT", "E-score": 0.196}
{"Sequence": "AGACCTGG", "E-score": -0.0457}
{"Sequence": "ACTGGAAC", "E-score": -0.0867}
{"Sequence": "AAGTTATG", "E-score": -0.157}
{"Sequence": "ACTACAAG", "E-score": -0.126}
{"Sequence": "ACTGCGCT", "E-score": 0.151}
{"Sequence": "CAGTGCAA", "E-score": -0.0897}
{"Sequence": "AGAAGACT", "E-score": -0.183}
{"Sequence": "ATTACAAC", "E-score": -0.019}
{"Sequence": "GCATTTCA", "E-score": -0.0756}
{"Sequence": "TCAACAAA", "E-score": -0.0919}
{"Sequence": "GGACGCTA", "E-score": 0.186}
{"Sequence": "AGCACAAG", "E-score": -0.23}
{"Sequence": "CCTACAGG", "E-score": -0.0675}
{"Sequence": "GACCGAGC", "E-score": 0.0938}
{"Sequence": "AAAGCCAG", "E-score": -0.17}
{"data": "Other studies, line by line"}
{"Substance": "PhoQ, residues 284 288 289 292 302 303 SIHMAM", "target": "PhoP, residues 12 14 15 18 19 SYFRT (Escherichia coli, UniProt P23836)", "assay": "Sort-seq, item: YFP reporter", "test system": "E. coli", "conditions": "PhoQ-PhoP variant library, together with: 10 µM Mg2+", "scale": "relative to: high Mg2+ state, higher = stronger signaling", "measurement": "fold induction", "value": 2.85}
{"note": "For quick reference, copied from above (study 1):"}
{"Sequence": "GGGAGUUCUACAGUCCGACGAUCUGUUGUUAAGCACUGUGUUCCAGACCGUGUCUGACUUUAGUGUAACCUAGGAGAUUUUUAUAGUUUUAUUUUAAUGAAAUCCCGCUUGACGCAGAGCAGCGGGGAGAGCAGUGUCCUCUACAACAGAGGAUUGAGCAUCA", "bound/input enrichment [ratio]": 2.65}
{"Sequence": "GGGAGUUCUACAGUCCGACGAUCGGGCUGUGUAGAGUAGGGCUGUGUUCUUCUUAGGAUGUUGCUUCUUGAUUUUCUUUUUUUAAGGGGUGGGUCAGGGUUGUGACACACCAGCCCAGGCAAGAGCUGCUGCGGGUCACCUCACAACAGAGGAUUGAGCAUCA", "bound/input enrichment [ratio]": 1.34}
{"Sequence": "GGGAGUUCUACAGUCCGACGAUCAGAAAAUUUUAAUCAGGAAUCAGAAGGUAGAAGCACAGGACCGUGGUUAUCUUCCUCACUUAGAAAUAGAUGCACACCUUUGUUCUCUAGAAGGAGGCGAGAGGGAAGAGAUGAAUCUUCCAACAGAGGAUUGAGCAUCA", "bound/input enrichment [ratio]": 1.11}
{"Sequence": "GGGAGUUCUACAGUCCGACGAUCCCCUCUGAACCCCAUAUCUUCUGUUUCAUAAUGCAGAAGUAUUCUUUUCAAUUAUAUCAUUAGUGGACUUGUUUUAAUUUUAGAGAAACUUUGAGUACAGAUACUGUGAGCUUACAUGGACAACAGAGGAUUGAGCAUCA", "bound/input enrichment [ratio]": 2.39}
{"Sequence": "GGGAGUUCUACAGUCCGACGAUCGUUAGGUCAUGACCCUUACAGAUUAGGUCAUGACCCUUAUAGGUUAGGACAGGACCCCUAUAGGUUAGGCCAUGAUCCCUAUAGGCUAGCUCCUGACCCCUAUAGAAUGUCACCCAGACCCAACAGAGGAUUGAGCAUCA", "bound/input enrichment [ratio]": 0.497}
{"Sequence": "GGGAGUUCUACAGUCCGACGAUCCCUACAAUAAUGAAAACCUACAGGAAUUUUUUUUUUCCCCAUUAUCCCCUUAGGCAUAUUUAGGCUUUUCCCCAGGCAGAUUAUUCUGAGUGUGCGAGUAUGUGUGCACAUGUUACAGAGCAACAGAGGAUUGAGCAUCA", "bound/input enrichment [ratio]": 0.876}
